Measured values from different studies.
Organism: Klebsiella pneumoniae

Structure (SMILES) | assay | system | conditions | MIC
CCCCCCCCCC[N+](C)(C)CCCCOc1cc(OCCCC[N+](C)(C)CCCCCCCCCC)cc(OCCCC[N+](C)(C)CCCCCCCCCC)c1.[Br-].[Br-].[Br-] |  | ATCC 4352 |  | 1 µM
C#CCO/N=C(\C(=O)N[C@@H]1C(=O)N(OS(=O)(=O)O)C1(C)C)c1csc(N)n1 | agar dilution | 16-14, ESBL-producing |  | 1 µg/mL
c1ccc(CN2CCOCCOCCN(CCCCCCCCCCCCN3CCOCCOCCN(CCCCCCCCCCCCN4CCOCCOCCN(Cc5ccccc5)CCOCCOCC4)CCOCCOCC3)CCOCCOCC2)cc1 |  | ATCC BAA-2146 |  | 35 µM
CCCCCCCCCC[N+](C)(C)CCCCCCOc1cc(OCCCCCC[N+](C)(C)CCCCCCCCCC)cc(OCCCCCC[N+](C)(C)CCCCCCCCCC)c1.[Br-].[Br-].[Br-] |  | ATCC 4352 |  | 1 µM
CC[C@H](C)[C@H](NC(=O)[C@H](CCC(N)=O)NC(=O)[C@H](Cc1ccccc1)NC(=O)[C@H](CC(N)=O)NC(=O)[C@H](CCCCN)NC(=O)[C@H](CC(C)C)NC(=O)[C@H](CCCNC(=N)N)NC(=O)[C@H](CCCCN)NC(=O)[C@H](CCCCN)NC(=O)[C@@H](NC(=O)[C@H](CO)NC(=O)[C@H](CCCCN)NC(=O)CNC(=O)[C@H](CC(C)C)NC(=O)[C@H](CCCCN)NC(=O)[C@H](CCCCN)NC(=O)[C@H](CC(C)C)NC(=O)[C@H](CCCCN)NC(=O)[C@H](CCCCN)NC(=O)[C@H](CCCNC(=N)N)NC(=O)[C@H](CC(C)C)NC(=O)CNC(=O)[C@@H](N)CCCNC(=N)N)[C@@H](C)CC)C(=O)NCC(=O)N[C@@H](Cc1ccccc1)C(=O)N[C@@H](CO)C(=O)N[C@H](C(=O)N1CCC[C@H]1C(=O)N[C@@H](Cc1ccccc1)C(=O)N[C@@H](C)C(=O)NCC(=O)O)C(C)C | broth microdilution | ATCC 43816 | 16 h, 37 °C, cation-adjusted Mueller-Hinton broth | 8 µg/mL
CC[C@H](C)[C@H](NC(=O)[C@@H](CCCNC(=N)N)NC(=O)[C@H](CCCNC(=N)N)NC(=O)[C@@H]1CCCN1C(=O)[C@@H]1CCCN1C(=O)[C@H](CCCNC(=N)N)NC(=O)[C@@H]1CCCN1C(=O)[C@H](CCCNC(=N)N)NC(=O)[C@@H]1CCCN1C(=O)[C@H](CCCNC(=N)N)NC(=O)[C@H](Cc1ccc(O)cc1)NC(=O)[C@@H]1CCCN1C(=O)[C@@H]1CCCN1C(=O)[C@H](CCCCN)NC(=O)[C@H](CC(=O)O)NC(=O)[C@@H](N)C(C)C)C(=O)N[C@@H](Cc1ccc(O)cc1)C(=O)N[C@@H](CC(N)=O)C(=O)N[C@H](CCCNC(=N)N)C(N)=O | broth microdilution | DSM 681 | 18 h, 37 °C, 25% MHB2 | 4 µg/mL
CCCCCCCCn1cc[n+](CCCCOc2cc(OCCCC[n+]3ccn(CCCCCCCC)c3)cc(OCCCC[n+]3ccn(CCCCCCCC)c3)c2)c1.[Br-].[Br-].[Br-] |  | ATCC 4352 |  | 0.5 µM
CC[C@H]1OC(=O)[C@H](C)[C@@H](OC(=O)Cc2cccc(Cl)c2)[C@H](C)[C@@H](O[C@@H]2O[C@H](C)C[C@H](N(C)C)[C@H]2O)[C@](C)(OC)C[C@@H](C)C(=O)[C@H](C)[C@@H](O)[C@]1(C)O | microbial growth | ATCC700603 |  | > 32 µg/mL
CN[C@H](CC(C)C)C(=O)N[C@H]1C(=O)N[C@@H](CC(N)=O)C(=O)N[C@H]2C(=O)N[C@H]3C(=O)N[C@H](C(=O)N[C@H](C(=O)O)c4cc(O)cc(O)c4-c4cc3ccc4O)[C@H](O)c3ccc(c(Cl)c3)Oc3cc2cc(c3O[C@@H]2O[C@H](CO)[C@@H](O)[C@H](O)[C@H]2O[C@H]2C[C@](C)(NCc3ccc(OCc4cn(CC(=O)N[C@H](C(=O)N[C@@H](CCN)C(=O)N[C@H]5CCNC(=O)[C@H]([C@@H](C)O)NC(=O)[C@H](CCN)NC(=O)[C@H](CCN)NC(=O)[C@H](CC(C)C)NC(=O)[C@@H](CC(C)C)NC(=O)[C@H](CCN)NC5=O)[C@@H](C)O)nn4)c(OC)c3)[C@H](O)[C@H](C)O2)Oc2ccc(cc2Cl)[C@H]1O | broth microdilution | ATCC 27736, cation-adjusted Mueller-Hinton broth | 18 to 20 h, 37 °C, 0.002% polysorbate 80 | 8 µg/mL
CC1(C)[C@H](NC(=O)/C(=N\OC2(C(=O)O)CCCC2)c2csc(N)n2)C(=O)N1OS(=O)(=O)O | agar dilution | ATCC 700603, ESBL-producing |  | 1 µg/mL
CC(C)C[C@@H]1NC(=O)[C@@H](CC(C)C)NC(=O)[C@H](CCN)NC(=O)[C@@H](NC(=O)[C@H](CCN)NC(=O)[C@@H](NC(=O)CCOCCOCCOCCN=[N+]=[N-])[C@@H](C)O)CCNC(=O)[C@H]([C@@H](C)O)NC(=O)[C@H](CCN)NC(=O)[C@H](CCN)NC1=O | broth microdilution | ATCC 27736, cation-adjusted Mueller-Hinton broth | 18 to 20 h, 37 °C, 0.002% polysorbate 80 | 64 µg/mL
CC[C@H]1OC(=O)[C@H](C)[C@@H](OC(=O)Cc2cccc([N+](=O)[O-])c2)[C@H](C)[C@@H](O[C@@H]2O[C@H](C)C[C@H](N(C)C)[C@H]2O)[C@](C)(OC)C[C@@H](C)C(=O)[C@H](C)[C@@H](O)[C@]1(C)O | microbial growth | ATCC700603 |  | > 32 µg/mL
CCCCCC[N+](C)(C)CCCCCCCCCCOc1cc(OCCCCCCCCCC[N+](C)(C)CCCCCC)cc(OCCCCCCCCCC[N+](C)(C)CCCCCC)c1.[Br-].[Br-].[Br-] |  | ATCC 4352 |  | 4 µM
C=CCO/N=C(\C(=O)N[C@@H]1C(=O)N(OS(=O)(=O)O)C1(C)C)c1csc(N)n1 | agar dilution | ATCC 700603, ESBL-producing |  | 16 µg/mL
CN[C@H](CC(C)C)C(=O)N[C@H]1C(=O)N[C@@H](CC(N)=O)C(=O)N[C@H]2C(=O)N[C@H]3C(=O)N[C@H](C(=O)N[C@H](C(=O)NCC(N)=O)c4cc(O)cc(O)c4-c4cc3ccc4O)[C@H](O)c3ccc(c(Cl)c3)Oc3cc2cc(c3O[C@@H]2O[C@H](CO)[C@@H](O)[C@H](O)[C@H]2O[C@H]2C[C@](C)(NCc3ccc(OCc4cn(CC(=O)N[C@H](C(=O)N[C@@H](CCN)C(=O)N[C@H]5CCNC(=O)[C@H]([C@@H](C)O)NC(=O)[C@H](CCN)NC(=O)[C@H](CCN)NC(=O)[C@H](CC(C)C)NC(=O)[C@@H](CC(C)C)NC(=O)[C@H](CCN)NC5=O)[C@@H](C)O)nn4)c(OC)c3)[C@H](O)[C@H](C)O2)Oc2ccc(cc2Cl)[C@H]1O | broth microdilution | ATCC 13883, cation-adjusted Mueller-Hinton broth | 18 to 20 h, 37 °C, 0.002% polysorbate 80 | 16 µg/mL
C#CCNC(=O)C1(O/N=C(\C(=O)N[C@@H]2C(=O)N(OS(=O)(=O)O)C2(C)C)c2csc(N)n2)CC1 | agar dilution | 16-14 ESBL |  | 4 µg/mL
CC[C@H](C)[C@@H]1NC(=O)[C@@H](CC(C)C)NC(=O)[C@H](CCN)NC(=O)[C@@H](NC(=O)[C@@H](CO)NC(=O)[C@@H](NC(=O)[C@H](CCN)NC(=O)c2ccc(-c3ccccc3)cc2)[C@@H](C)O)CCNC(=O)[C@H](CC(C)C)NC(=O)[C@H](CCN)NC(=O)[C@H](CCN)NC1=O | broth microdilution | ATCC 19606 |  | 0.5 to 1 µg/mL
CN[C@H](CC(C)C)C(=O)N[C@H]1C(=O)N[C@@H](CC(N)=O)C(=O)N[C@H]2C(=O)N[C@H]3C(=O)N[C@H](C(=O)N[C@H](C(=O)NCc4cn(CCCCC(=O)N[C@H](C(=O)N[C@@H](CCN)C(=O)N[C@H]5CCNC(=O)[C@H]([C@@H](C)O)NC(=O)[C@H](CCN)NC(=O)[C@H](CCN)NC(=O)[C@H](CC(C)C)NC(=O)[C@@H](CC(C)C)NC(=O)[C@H](CCN)NC5=O)[C@@H](C)O)nn4)c4cc(O)cc(O)c4-c4cc3ccc4O)[C@H](O)c3ccc(c(Cl)c3)Oc3cc2cc(c3O[C@@H]2O[C@H](CO)[C@@H](O)[C@H](O)[C@H]2O[C@H]2C[C@](C)(N)[C@H](O)[C@H](C)O2)Oc2ccc(cc2Cl)[C@H]1O | broth microdilution | ATCC 27736, cation-adjusted Mueller-Hinton broth | 18 to 20 h, 37 °C, 0.002% polysorbate 80 | 16 µg/mL
CC1(C)[C@H](NC(=O)/C(=N\OCCN)c2csc(N)n2)C(=O)N1OS(=O)(=O)O | agar dilution | ATCC 700603, ESBL-producing |  | > 64 µg/mL
CCCCCCCCCCn1cc[n+](CCCCCCOc2cc(OCCCCCC[n+]3ccn(CCCCCCCCCC)c3)cc(OCCCCCC[n+]3ccn(CCCCCCCCCC)c3)c2)c1.[Br-].[Br-].[Br-] |  | ATCC 4352 |  | 4 µM
C=CCO/N=C(\C(=O)N[C@@H]1C(=O)N(OS(=O)(=O)O)C1(C)C)c1nsc(N)n1 | agar dilution | ATCC 700603, ESBL-producing |  | 32 µg/mL
COc1nc(C(=O)Nc2ccc(C(=O)O)c(O)c2OC)ccc1NC(=O)c1ccc(NC(=O)[C@H](Cc2c[nH]nn2)NC(=O)c2ccc(NC(=O)/C(C)=C/c3ccc(O)cc3)cc2)cc1 | broth microdilution | ciprofloxacin-sensitive |  | 64 µg/mL
CN[C@H](CC(C)C)C(=O)N[C@H]1C(=O)N[C@@H](CC(N)=O)C(=O)N[C@H]2C(=O)N[C@H]3C(=O)N[C@H](C(=O)N[C@H](C(=O)O)c4cc(O)cc(O)c4-c4cc3ccc4O)[C@H](O)c3ccc(c(Cl)c3)Oc3cc2cc(c3O[C@@H]2O[C@H](CO)[C@@H](O)[C@H](O)[C@H]2O[C@H]2C[C@](C)(NCc3ccc(OCc4cn(CCCCC(=O)N[C@H](C(=O)N[C@@H](CCN)C(=O)N[C@H]5CCNC(=O)[C@H]([C@@H](C)O)NC(=O)[C@H](CCN)NC(=O)[C@H](CCN)NC(=O)[C@H](CC(C)C)NC(=O)[C@@H](CC(C)C)NC(=O)[C@H](CCN)NC5=O)[C@@H](C)O)nn4)c(OC)c3)[C@H](O)[C@H](C)O2)Oc2ccc(cc2Cl)[C@H]1O | broth microdilution | ATCC 13883, cation-adjusted Mueller-Hinton broth | 18 to 20 h, 37 °C, 0.002% polysorbate 80 | 8 µg/mL
CC1(C)[C@H](NC(=O)/C(=N\OCc2c(Cl)cccc2Cl)c2csc(N)n2)C(=O)N1OS(=O)(=O)O | agar dilution | 16-14, ESBL-producing |  | 8 µg/mL
CC[C@H]1OC(=O)[C@H](C)[C@@H](OC(=O)Cc2ccccc2Cl)[C@H](C)[C@@H](O[C@@H]2O[C@H](C)C[C@H](N(C)C)[C@H]2O)[C@](C)(OC)C[C@@H](C)C(=O)[C@H](C)[C@@H](O)[C@]1(C)O | microbial growth | ATCC700603 |  | > 32 µg/mL
CCCCCCCC[N+](C)(C)CCCCCCCCCCOc1cc(OCCCCCCCCCC[N+](C)(C)CCCCCCCC)cc(OCCCCCCCCCC[N+](C)(C)CCCCCCCC)c1.[Br-].[Br-].[Br-] |  | ATCC 4352 |  | 63 µM
CC1(C)[C@H](NC(=O)/C(=N\OCc2c(Cl)cccc2Cl)c2nsc(N)n2)C(=O)N1OS(=O)(=O)O | agar dilution | 16-14, ESBL-producing |  | 8 µg/mL

Some of these lines once more:
Structure (SMILES) | assay | system | conditions | MIC
CCCCCCCCCCn1cc[n+](CCCCCCOc2cc(OCCCCCC[n+]3ccn(CCCCCCCCCC)c3)cc(OCCCCCC[n+]3ccn(CCCCCCCCCC)c3)c2)c1.[Br-].[Br-].[Br-] |  | ATCC 4352 |  | 4 µM
CC[C@H]1OC(=O)[C@H](C)[C@@H](OC(=O)Cc2cccc([N+](=O)[O-])c2)[C@H](C)[C@@H](O[C@@H]2O[C@H](C)C[C@H](N(C)C)[C@H]2O)[C@](C)(OC)C[C@@H](C)C(=O)[C@H](C)[C@@H](O)[C@]1(C)O | microbial growth | ATCC700603 |  | > 32 µg/mL
CC[C@H](C)[C@H](NC(=O)[C@H](CCC(N)=O)NC(=O)[C@H](Cc1ccccc1)NC(=O)[C@H](CC(N)=O)NC(=O)[C@H](CCCCN)NC(=O)[C@H](CC(C)C)NC(=O)[C@H](CCCNC(=N)N)NC(=O)[C@H](CCCCN)NC(=O)[C@H](CCCCN)NC(=O)[C@@H](NC(=O)[C@H](CO)NC(=O)[C@H](CCCCN)NC(=O)CNC(=O)[C@H](CC(C)C)NC(=O)[C@H](CCCCN)NC(=O)[C@H](CCCCN)NC(=O)[C@H](CC(C)C)NC(=O)[C@H](CCCCN)NC(=O)[C@H](CCCCN)NC(=O)[C@H](CCCNC(=N)N)NC(=O)[C@H](CC(C)C)NC(=O)CNC(=O)[C@@H](N)CCCNC(=N)N)[C@@H](C)CC)C(=O)NCC(=O)N[C@@H](Cc1ccccc1)C(=O)N[C@@H](CO)C(=O)N[C@H](C(=O)N1CCC[C@H]1C(=O)N[C@@H](Cc1ccccc1)C(=O)N[C@@H](C)C(=O)NCC(=O)O)C(C)C | broth microdilution | ATCC 43816 | 16 h, 37 °C, cation-adjusted Mueller-Hinton broth | 8 µg/mL
CC[C@H](C)[C@@H]1NC(=O)[C@@H](CC(C)C)NC(=O)[C@H](CCN)NC(=O)[C@@H](NC(=O)[C@@H](CO)NC(=O)[C@@H](NC(=O)[C@H](CCN)NC(=O)c2ccc(-c3ccccc3)cc2)[C@@H](C)O)CCNC(=O)[C@H](CC(C)C)NC(=O)[C@H](CCN)NC(=O)[C@H](CCN)NC1=O | broth microdilution | ATCC 19606 |  | 0.5 to 1 µg/mL
